Experimental data from different studies.
± marks the error that the study gave.
SLC22A11: Solute carrier family 22 member 11 (SLC22A11, Homo sapiens, UniProt Q9NSA0)
UniProt Q9NSA0, sequence (whole entry, looked up): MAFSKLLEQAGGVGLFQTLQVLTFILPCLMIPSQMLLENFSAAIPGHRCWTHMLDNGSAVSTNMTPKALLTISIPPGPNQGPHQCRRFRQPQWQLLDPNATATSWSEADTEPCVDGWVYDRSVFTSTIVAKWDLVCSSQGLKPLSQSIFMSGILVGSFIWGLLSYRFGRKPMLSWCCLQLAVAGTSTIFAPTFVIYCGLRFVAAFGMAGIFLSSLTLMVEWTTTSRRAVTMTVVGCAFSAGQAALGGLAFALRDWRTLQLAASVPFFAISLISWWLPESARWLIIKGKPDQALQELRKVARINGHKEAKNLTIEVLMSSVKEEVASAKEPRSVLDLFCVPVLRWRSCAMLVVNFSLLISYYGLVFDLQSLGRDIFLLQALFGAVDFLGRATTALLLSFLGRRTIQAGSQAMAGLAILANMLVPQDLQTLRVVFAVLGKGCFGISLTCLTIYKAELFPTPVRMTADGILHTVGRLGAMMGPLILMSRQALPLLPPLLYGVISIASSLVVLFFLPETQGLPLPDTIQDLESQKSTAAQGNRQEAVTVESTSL
pyrD: Dihydroorotate dehydrogenase (quinone) (pyrD, Acinetobacter baumannii, UniProt B7GZW7)
UniProt B7GZW7, sequence (whole entry, looked up): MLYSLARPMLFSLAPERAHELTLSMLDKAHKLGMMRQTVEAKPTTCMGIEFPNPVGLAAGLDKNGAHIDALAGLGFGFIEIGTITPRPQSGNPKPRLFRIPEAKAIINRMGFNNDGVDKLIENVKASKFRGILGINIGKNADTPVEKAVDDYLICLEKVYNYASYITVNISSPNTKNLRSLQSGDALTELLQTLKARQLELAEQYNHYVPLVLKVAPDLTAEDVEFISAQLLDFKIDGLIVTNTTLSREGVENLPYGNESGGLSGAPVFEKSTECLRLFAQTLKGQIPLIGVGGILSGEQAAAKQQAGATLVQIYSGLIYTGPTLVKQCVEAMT
Proteasome subunit beta type-9: Proteasome subunit beta type-9 (Homo sapiens, UniProt P28065)
UniProt P28065, sequence (whole entry, looked up): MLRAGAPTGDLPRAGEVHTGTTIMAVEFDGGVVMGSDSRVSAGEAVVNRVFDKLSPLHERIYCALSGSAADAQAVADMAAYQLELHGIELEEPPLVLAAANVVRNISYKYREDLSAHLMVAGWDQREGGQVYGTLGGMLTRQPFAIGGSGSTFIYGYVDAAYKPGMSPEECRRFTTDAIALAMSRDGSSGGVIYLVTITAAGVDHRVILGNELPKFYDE
Probable G-protein coupled receptor 34: Probable G-protein coupled receptor 34 (Homo sapiens, UniProt Q9UPC5)
UniProt Q9UPC5, sequence (whole entry, looked up): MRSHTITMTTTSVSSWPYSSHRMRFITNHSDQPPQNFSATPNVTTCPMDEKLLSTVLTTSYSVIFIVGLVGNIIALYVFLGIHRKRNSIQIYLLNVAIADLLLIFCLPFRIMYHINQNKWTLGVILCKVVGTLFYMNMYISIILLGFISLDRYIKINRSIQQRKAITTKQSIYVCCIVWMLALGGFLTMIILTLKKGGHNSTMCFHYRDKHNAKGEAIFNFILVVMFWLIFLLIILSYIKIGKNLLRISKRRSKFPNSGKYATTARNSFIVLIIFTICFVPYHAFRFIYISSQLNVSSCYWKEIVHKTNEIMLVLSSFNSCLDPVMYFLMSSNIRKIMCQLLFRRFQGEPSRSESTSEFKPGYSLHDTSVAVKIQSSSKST
SLCO1B3: Solute carrier organic anion transporter family member 1B3 (SLCO1B3, Homo sapiens, UniProt Q9NPD5)
UniProt Q9NPD5, sequence (whole entry, unmodified, looked up): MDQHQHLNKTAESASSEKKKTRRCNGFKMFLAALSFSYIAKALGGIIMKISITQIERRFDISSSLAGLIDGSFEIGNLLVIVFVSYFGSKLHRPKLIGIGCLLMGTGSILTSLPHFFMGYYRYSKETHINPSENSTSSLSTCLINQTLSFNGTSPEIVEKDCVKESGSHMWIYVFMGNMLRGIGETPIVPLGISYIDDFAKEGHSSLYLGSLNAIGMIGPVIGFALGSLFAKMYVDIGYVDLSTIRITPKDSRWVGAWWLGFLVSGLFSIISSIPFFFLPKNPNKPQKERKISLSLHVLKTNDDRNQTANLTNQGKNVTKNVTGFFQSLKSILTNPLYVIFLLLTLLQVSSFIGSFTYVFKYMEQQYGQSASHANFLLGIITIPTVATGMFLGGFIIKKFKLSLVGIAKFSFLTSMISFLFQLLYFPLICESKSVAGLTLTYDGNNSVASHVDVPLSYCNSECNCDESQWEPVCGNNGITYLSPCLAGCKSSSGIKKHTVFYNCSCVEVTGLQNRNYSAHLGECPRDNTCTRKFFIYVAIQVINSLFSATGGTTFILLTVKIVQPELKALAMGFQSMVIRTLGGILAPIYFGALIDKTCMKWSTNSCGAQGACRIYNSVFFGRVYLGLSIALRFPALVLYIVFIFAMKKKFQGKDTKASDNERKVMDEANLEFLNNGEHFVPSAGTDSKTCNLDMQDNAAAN
P2RX4: P2X purinoceptor 4 (P2RX4, Homo sapiens, UniProt Q99571)
UniProt Q99571, sequence (whole entry, looked up): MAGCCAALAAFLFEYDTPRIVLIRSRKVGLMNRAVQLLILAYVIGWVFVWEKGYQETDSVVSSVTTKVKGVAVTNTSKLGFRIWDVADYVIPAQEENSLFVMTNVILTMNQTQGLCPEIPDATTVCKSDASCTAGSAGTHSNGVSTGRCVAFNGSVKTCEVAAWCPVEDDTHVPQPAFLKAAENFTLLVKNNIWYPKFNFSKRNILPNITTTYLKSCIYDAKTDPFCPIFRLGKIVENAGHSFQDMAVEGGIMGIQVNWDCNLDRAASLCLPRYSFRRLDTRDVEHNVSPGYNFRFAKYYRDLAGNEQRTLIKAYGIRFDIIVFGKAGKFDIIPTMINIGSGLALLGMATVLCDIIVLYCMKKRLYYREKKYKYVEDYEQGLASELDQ
SOD1 fully metallated: Superoxide dismutase [Cu-Zn], fully metallated (SOD1, Homo sapiens, UniProt P00441)
UniProt P00441, sequence (whole entry, looked up): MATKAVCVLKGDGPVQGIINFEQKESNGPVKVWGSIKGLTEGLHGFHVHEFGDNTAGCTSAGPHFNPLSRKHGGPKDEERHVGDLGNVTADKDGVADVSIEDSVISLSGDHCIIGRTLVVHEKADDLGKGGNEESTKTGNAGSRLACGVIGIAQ
PADI4: Protein-arginine deiminase type-4 (PADI4, Homo sapiens, UniProt Q9UM07)
UniProt Q9UM07, sequence (whole entry, looked up): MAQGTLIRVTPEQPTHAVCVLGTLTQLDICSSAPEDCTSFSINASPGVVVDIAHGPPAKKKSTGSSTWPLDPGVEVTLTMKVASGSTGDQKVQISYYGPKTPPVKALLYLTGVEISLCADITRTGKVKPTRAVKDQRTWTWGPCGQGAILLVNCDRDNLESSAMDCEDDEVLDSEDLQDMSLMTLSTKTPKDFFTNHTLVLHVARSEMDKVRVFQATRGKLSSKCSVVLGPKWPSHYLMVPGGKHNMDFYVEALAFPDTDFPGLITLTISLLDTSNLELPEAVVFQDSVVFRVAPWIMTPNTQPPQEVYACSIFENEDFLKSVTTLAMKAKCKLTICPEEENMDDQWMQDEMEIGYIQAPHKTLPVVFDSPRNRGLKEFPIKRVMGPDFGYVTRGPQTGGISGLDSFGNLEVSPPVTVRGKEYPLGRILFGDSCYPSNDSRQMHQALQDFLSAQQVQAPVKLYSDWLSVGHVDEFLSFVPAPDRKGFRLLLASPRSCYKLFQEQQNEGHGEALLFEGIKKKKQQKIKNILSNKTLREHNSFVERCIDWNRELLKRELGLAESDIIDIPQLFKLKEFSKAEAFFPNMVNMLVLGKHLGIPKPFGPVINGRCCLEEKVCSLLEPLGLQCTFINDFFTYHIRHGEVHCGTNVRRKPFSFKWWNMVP
UniProt Q06418, sequence (whole entry, looked up): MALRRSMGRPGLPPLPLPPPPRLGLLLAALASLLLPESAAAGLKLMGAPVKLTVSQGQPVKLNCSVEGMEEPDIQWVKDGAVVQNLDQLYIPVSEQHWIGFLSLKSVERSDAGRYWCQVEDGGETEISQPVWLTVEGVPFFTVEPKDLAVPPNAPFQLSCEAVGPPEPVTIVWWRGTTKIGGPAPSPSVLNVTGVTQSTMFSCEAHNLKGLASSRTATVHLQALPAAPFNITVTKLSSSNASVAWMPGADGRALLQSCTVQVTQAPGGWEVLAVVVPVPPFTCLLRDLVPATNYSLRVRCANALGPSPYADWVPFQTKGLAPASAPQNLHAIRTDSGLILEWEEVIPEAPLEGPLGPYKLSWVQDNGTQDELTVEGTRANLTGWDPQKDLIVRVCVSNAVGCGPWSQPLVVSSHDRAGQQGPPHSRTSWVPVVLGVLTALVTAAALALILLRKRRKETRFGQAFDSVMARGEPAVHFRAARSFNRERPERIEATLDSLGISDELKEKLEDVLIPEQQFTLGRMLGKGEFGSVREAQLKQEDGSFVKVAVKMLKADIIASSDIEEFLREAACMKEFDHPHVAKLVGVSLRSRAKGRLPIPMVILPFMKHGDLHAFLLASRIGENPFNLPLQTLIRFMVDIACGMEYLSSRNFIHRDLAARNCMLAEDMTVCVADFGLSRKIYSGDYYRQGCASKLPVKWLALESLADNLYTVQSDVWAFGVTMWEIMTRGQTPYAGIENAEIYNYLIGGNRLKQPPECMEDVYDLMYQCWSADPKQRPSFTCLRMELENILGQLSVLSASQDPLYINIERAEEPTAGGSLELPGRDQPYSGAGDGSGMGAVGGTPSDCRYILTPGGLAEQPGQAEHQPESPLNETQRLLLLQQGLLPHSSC
UniProt Q01959, sequence (whole entry, looked up): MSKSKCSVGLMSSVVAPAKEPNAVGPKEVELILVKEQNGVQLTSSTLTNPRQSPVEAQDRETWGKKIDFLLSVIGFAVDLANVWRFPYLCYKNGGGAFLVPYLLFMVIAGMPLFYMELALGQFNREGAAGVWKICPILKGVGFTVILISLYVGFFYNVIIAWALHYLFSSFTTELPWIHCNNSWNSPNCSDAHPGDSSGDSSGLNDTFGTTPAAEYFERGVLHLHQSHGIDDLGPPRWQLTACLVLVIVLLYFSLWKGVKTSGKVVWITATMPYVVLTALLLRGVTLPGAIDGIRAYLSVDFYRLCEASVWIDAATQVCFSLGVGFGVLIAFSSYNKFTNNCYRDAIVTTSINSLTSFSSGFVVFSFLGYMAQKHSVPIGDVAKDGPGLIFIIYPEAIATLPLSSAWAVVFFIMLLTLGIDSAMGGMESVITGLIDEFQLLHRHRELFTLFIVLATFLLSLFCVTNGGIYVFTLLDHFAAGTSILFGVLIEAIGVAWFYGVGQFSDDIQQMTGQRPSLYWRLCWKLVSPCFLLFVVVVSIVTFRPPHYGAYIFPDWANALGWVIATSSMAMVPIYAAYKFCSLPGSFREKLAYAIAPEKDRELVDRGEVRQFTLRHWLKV

| Structure (SMILES) | target | test | test system | conditions | IC50 [µM] |
| --- | --- | --- | --- | --- | --- |
| CCCC[C@H](NC(=O)[C@H](C)c1c(C)[nH]c2ccc(O)cc12)c1ncc(-c2cc3ccccc3nc2OC)[nH]1 | Melanin-concentrating hormone receptor 1 (MCHR1, Homo sapiens, UniProt Q99705) | binding | – | – | 9.47 |
| Cc1cnc(NC(=O)C2=C(O)c3ccccc3S(=O)(=O)N2C)s1 | SLC22A11 | transport, inhibitor | CHO expressing hOAT4 | 5 min, added: [3H]estrone sulfate 14 nM | 158 ± 4.1 |
| Cc1cc(Nc2ccc(C(F)(F)F)cc2)n2ncnc2n1 | pyrD | enzyme activity, inhibitor, DCIP steady-state rate | – | – | 1.6 ± 0.51 |
| Nc1nc(=O)n([C@H]2C[C@H](O)[C@@H](CO)O2)cc1CSCC[C@H](N)C(=O)O | DNA (cytosine-5)-methyltransferase 1 (DNMT1, Homo sapiens, UniProt P26358) | – | – | truncated enzyme, added: 26 bp hemimethylated DNA, SAM 1 µM | > 100 |
| CC#CC(=O)N1CC[C@@H](n2c(=O)n(-c3ccc(Oc4ccccc4)cc3)c3c(N)ncnc32)C1 | Proto-oncogene tyrosine-protein kinase Src (SRC, Homo sapiens, UniProt P12931) | – | – | – | > 5 |
| COc1ccc(C[C@H](NC(=O)[C@H](C)NC(=O)CN2CCOCC2)C(=O)N[C@@H](CC2CCC(OC)CC2)C(=O)[C@@]2(C)CO2)cc1 (some centres unmarked) | Proteasome subunit beta type-9 | competitive ABPP | Raji cell lysate | – | > 10 |
| CN1CCN(CCCNc2ncc(Cl)c(-c3cc4c(C(=O)NC5CC5)cccc4s3)n2)CC1 | Probable G-protein coupled receptor 34 | antagonist, Tango | – | added: LysoPS 5 µM | > 10 |
| COC(=O)C1=C(CCOCc2ccccc2)CCCC1(C)C=O (centres unmarked) | Presenilin-1, in γ-secretase complex (PSEN1, Homo sapiens, UniProt P49768) | gamma-secretase activity, inhibitor, AlphaLISA | – | added: Notch1 substrate | 5.32 ± 0.7 |
| C[C@@H]1[C@H](O)[C@@H](C)/C=C/C=C/C=C/C=C/C=C/C=C/C=C/[C@H](O[C@@H]2O[C@H](C)[C@@H](O)[C@H](N)[C@@H]2O)C[C@@H]2O[C@](O)(C[C@@H](O)C[C@@H](O)[C@H](O)CC[C@@H](O)C[C@@H](O)CC(=O)O[C@H]1C)C[C@H](O)[C@H]2C(=O)O | SLCO1B3 | inhibitor | – | – | 0.9 |
| O=S(=O)(c1ccc(F)cc1)N1CCNCC1COc1ccc2c(c1)OCO2 (centres unmarked) | P2RX4 | calcium flux, inhibitor, Ca2+ flux | human cells | – | 3.31 ± 0.79 |
| CCC[C@H](NC(=O)/C(C#N)=C/c1cccc(Br)n1)c1ccccc1 | Ubiquitin carboxyl-terminal hydrolase 16 (USP16, Homo sapiens, UniProt Q9Y5T5) | deubiquitinase activity, inhibitor, MALDI-TOF DUB | – | 30 °C, 35 min pre-incubation | 2.49 |
| CN1CCN(c2ccc(Nc3ncc4cc(C#N)c(=O)n(C5CCCC5)c4n3)cc2)CC1 | Serine/threonine-protein kinase Chk1 (CHEK1, Homo sapiens, UniProt O14757) | – | – | – | 0.566 |
| CC(C)C[C@H](NC(=O)[C@H](CCc1ccccc1)NC(=O)CN1CCOCC1)C(=O)N[C@@H](Cc1ccccc1)C(=O)N[C@@H](CC(C)C)C(=O)[C@@]1(C)CO1 | Psmb7/Psmb3, β2 subunit (Mus musculus, UniProt P70195+Q9R1P1) | proteasome subunit activity | Ba/F3 BCR-ABL1 T315I | 1 h pulse | 0.151 ± 0.0162 |
| Cc1nn(-c2nc3c(F)cc(F)cc3s2)c(O)c1C(c1ccc(C(F)(F)F)cc1)c1c(C)nn(-c2nc3c(F)cc(F)cc3s2)c1O | Cyclic GMP-AMP synthase (Cgas, Mus musculus, UniProt Q8C6L5) | enzyme activity, inhibitor, pyrophosphatase-coupled | – | – | 3.73 |
| COc1c([C@H]2[C@H](C(=O)Nc3ccnc(C(N)=O)c3)O[C@@](C)(C(F)(F)F)[C@H]2C)ccc(F)c1F | Sodium-dependent dopamine transporter (SLC6A3, Homo sapiens, UniProt Q01959) | functional activity, antagonist | – | – | 14 |
| COc1ccc(OCC2CNCCN2c2ccc(F)cc2)cc1OC (centres unmarked) | P2RX4 | Ca2+ flux, antagonist | human cells expressing P2RX4 | racemate tested | > 100 |
| CC[C@@H]1[C@H](F)C(=O)N[C@@H]1COc1nccc2cc(C(N)=O)c(OC)cc12 | Cyclin-dependent kinase 10 (CDK10, Homo sapiens, UniProt Q15131) | ATP-site probe binding, ActivX profiling | THP-1 cell lysate | Lys2 site | > 5 |
| COc1cc(C(=O)NS(=O)(=O)c2ccccc2C)ccc1Cc1cn(C)c2ccc(NC(=O)OC3CCCC3)cc12 | LRRC8A/LRRC8C (Homo sapiens, UniProt Q8IWT6+Q8TDW0) | ion current, inhibitor, whole-cell patch clamp | HCT116 LRRC8 knockout, transfected | -100 mV, LRRC8A/LRRC8C heteromer | 15.2 |
| Cc1nc(-c2cnc(NC(C)C)n(C)c2=O)ccc1Oc1ccnc(-c2cnn(C)c2)c1 | Cytochrome P450 2C9 (CYP2C9, Homo sapiens, UniProt P11712) | metabolism-dependent inhibition, inhibitor | – | 30 min preincubation with NADPH | 88 |
| CC(C)C[C@H](NC(=O)c1cnccn1)C(=O)N[C@@H](C)C(=O)N[C@H](/C=C/S(C)(=O)=O)Cc1ccc(CN)cc1 | Proteasome subunit beta type-9 | competitive ABPP | Raji cell lysate | – | > 10 |
| Cc1cc(Nc2ccc(NC(=O)c3ccc(Nc4ccnc5ccccc45)cc3)cc2)nc(N)n1 | Probable G-protein coupled receptor 34 | antagonist, Tango | – | added: LysoPS 5 µM | > 10 |
| O=S(=O)(c1cccnc1Cl)N1CCNCC1COc1ccc2ccccc2c1 (centres unmarked) | P2RX4 | calcium flux, inhibitor, Ca2+ flux | human cells | – | 4.07 ± 0.16 |
| COc1cc2nccc(Oc3ccc(NC(=O)c4cc5c(n(-c6ccccc6)c4=O)CCCC5=O)nc3)c2cc1OC | Tyrosine-protein kinase receptor TYRO3 (TYRO3, Homo sapiens, UniProt Q06418) | cell viability, CellTiter-Glo | Ba/F3 expressing recombinant kinase | 48 h | 0.0087 |
| COc1ccc(C[C@H](NC(=O)[C@H](C)NC(=O)CN2CCOCC2)C(=O)N[C@@H](CC2CC3CCC2C3)C(=O)[C@@]2(C)CO2)cc1 (mixture of isomers) | Proteasome subunit beta type-9 | competitive ABPP | Raji cell lysate | – | > 10 |
| NC(=O)c1nnn(Cc2cc(Cl)c(C(=O)c3ccc(Cl)cc3)c(Cl)c2)c1N | Voltage-dependent L-type calcium channel subunit alpha-1C (CACNA1C, Homo sapiens, UniProt Q13936) | calcium influx, blocker, calcium flux | – | 30 min, top concentration 10 µM | 8.35 |

| Structure (SMILES) | target | test | test system | conditions | IC50 [µM] |
| --- | --- | --- | --- | --- | --- |
| O=C(CCCCCCC(=O)Nc1ccc(CCF)cc1)NO | Histone deacetylase 2 (HDAC2, Homo sapiens, UniProt Q92769) | – | – | – | 0.446 |
| CCCc1nc2c(C)cc(-c3nc4ccccc4n3C)cc2n1Cc1ccc(-c2ccccc2C(=O)O)cc1 | SLC22A11 | transport, inhibitor | CHO expressing hOAT4 | 5 min, added: [3H]estrone sulfate 14 nM | 30.7 ± 5 |
| COc1ccc(S(=O)(=O)N2CCNCC2COc2ccc3ccccc3c2)cc1 (centres unmarked) | P2RX4 | calcium flux, inhibitor, Ca2+ flux | human cells | – | 4.79 ± 0.19 |
| CNc1cc[n+](CCNC(=O)c2ccn3c(-c4c(C)noc4C)cnc3c2)cc1 | Alpha-2B adrenergic receptor (Canis lupus familiaris, UniProt A0A8I3NDU8) | enzyme activity, inhibitor, cell-based | dog | – | 0.025 |
| COc1ccccc1S(=O)(=O)N1CCNCC1COc1ccc2ccccc2c1 (centres unmarked) | P2RX4 | Ca2+ flux, antagonist | human cells expressing P2RX4 | racemate tested | > 10 |
| Cc1ncc(C(=O)N[C@@H](CC2CCCCC2)C(=O)N[C@@H](CC2CCCCC2)C(=O)N[C@H](/C=C/S(C)(=O)=O)Cc2ccc(CN)cc2)s1 | Proteasome subunit beta type-9 | competitive ABPP | Raji cell lysate | – | > 10 |
| CN(Cc1cnc2nc(N)nc(N)c2n1)c1ccc(C(=O)N[C@@H](CCC(=O)O)C(=O)O)cc1 | Solute carrier organic anion transporter family member 1B3 (SLCO1B3, Homo sapiens, UniProt Q9NPD5, M233I/S112A) | estradiol glucuronide uptake, inhibitor | SLCO1B3-expressing cells | 2 min, added: 1 µM [3H]estradiol glucuronide | > 100 |
| Cc1nc2ncnn2c(Nc2ccc(C(F)(F)F)cc2)c1Cl | pyrD | enzyme activity, inhibitor, DCIP steady-state rate | – | – | 4.8 ± 1.9 |
| Cc1ncc(C(=O)N[C@@H](CC(C)C)C(=O)N[C@@H](CC2CCC(C)CC2)C(=O)N[C@H](/C=C/S(C)(=O)=O)Cc2ccc(CN)cc2)s1 (some centres unmarked) | Proteasome subunit beta type-9 | competitive ABPP | Raji cell lysate | – | > 10 |
| CN(C)c1ccc2nc3ccc(=[N+](C)C)cc-3sc2c1 | SOD1 fully metallated | enzyme activity, inhibitor, XTT | – | – | > 75 |
| CN(C)c1nonc1/C(=N/O)Nc1ccc(F)c(Br)c1 | Indoleamine 2,3-dioxygenase 1 (IDO1, Homo sapiens, UniProt P14902) | enzyme activity, inhibitor | – | pH 6.5 | > 20 |
| CCn1c(-c2nc3ccc(C(=O)N4CCCC(N)C4)cc3n2C)cc2ccccc21 (centres unmarked) | PADI4 | binding, fluorescence polarisation | – | added: 10 nM tracer displacement, 2 mM Ca2+ | > 100 |
| COc1cc(/C=C/C(=O)CC(=O)/C=C/c2ccc(O)c(OC)c2)ccc1O | SOD1 fully metallated | enzyme activity, inhibitor, XTT | – | – | > 75 |
| COC1CCC(C[C@H](NC(=O)[C@H](CC(C)C)NC(=O)c2cnc(C)s2)C(=O)N[C@H](/C=C/S(C)(=O)=O)Cc2ccc(CN)cc2)CC1 (some centres unmarked) | Proteasome subunit beta type-9 | competitive ABPP | Raji cell lysate | – | > 10 |
| C=CC(=O)Nc1cc(Nc2nccc(-c3cn(C)c4ccccc34)n2)c(OC)cc1N(C)CCN(C)C | SLCO1B3 | transport | – | – | 52.5 |
| C=CCNc1cc(-c2ccccc2)nc(-c2ccccn2)n1 | CLEC1B, with podoplanin (Homo sapiens, UniProt Q9P126) | podoplanin binding, inhibitor, AlphaScreen | – | 250 nM CLEC-2, added: 50 nM biotinylated podoplanin-Fc | 6.3 |
| O=c1c(O)c(-c2ccc(O)c(O)c2)oc2cc(O)ccc12 | Amine oxidase [flavin-containing] B (MAOB, Homo sapiens, UniProt P27338) | enzyme activity, inhibitor | – | added: kynuramine 50 µM | > 100 |
| COc1ccc(C[C@H](N)C(=O)N[C@H]2[C@@H](O)[C@H](n3cnc4c(N(C)C)ncnc43)O[C@@H]2CO)cc1 | rat aminopeptidase III | enzyme activity, inhibitor | – | – | 2.6 |
| Cc1ccc(CNC(=O)CSCc2nc(-c3cccc(C)c3)oc2C)cc1 | Probable G-protein coupled receptor 34 | antagonist, Tango | – | added: LysoPS 5 µM | > 10 |
| Fc1ccc(N2CCNCC2COc2ccc3ccccc3c2)cc1 (centres unmarked) | P2RX4 | calcium flux, inhibitor, Ca2+ flux | human cells | – | 1.38 ± 0.18 |
| N#Cc1cc(-c2ncnc(Nc3ccc(N4CCN(C5COC5)CC4)cc3)n2)ccc1OC1CCOCC1 | Probable G-protein coupled receptor 34 | antagonist, Tango | – | added: LysoPS 5 µM | > 10 |
| COCCOc1ccc(N2CCNCC2COc2ccc3c(c2)OCO3)cc1 (centres unmarked) | P2RX4 | calcium flux, inhibitor, Ca2+ flux | human cells | – | > 10 |
| CCn1c(-c2nc3cc(C(=O)N4CCC[C@@H](N)C4)cc(OC)c3n2C)cc2cccnc21 | PADI4 | binding, chemoproteomic bead capture dot-blot | NB-4 cell lysate | – | 0.047 |
| O=[N+]([O-])c1ccc(N2CCNCC2COc2ccc3c(c2)OCO3)cc1 (centres unmarked) | P2RX4 | Ca2+ flux, antagonist | human cells expressing P2RX4 | racemate tested | > 10 |
| COc1ccc2c(c1)CN(C(=O)CCN1CCC(Cc3ccccc3)CC1)CC[S@@+]2[O-] | Kir3.1/Kir3.4 (Homo sapiens, UniProt P48544+P48549) | GIRK current, inhibitor, whole-cell patch clamp | stable cell line | – | 17.5 |

For quick reference, copied from above:
| Structure (SMILES) | target | test | test system | conditions | IC50 [µM] |
| --- | --- | --- | --- | --- | --- |
| COC(=O)C1=C(CCOCc2ccccc2)CCCC1(C)C=O (centres unmarked) | Presenilin-1, in γ-secretase complex (PSEN1, Homo sapiens, UniProt P49768) | gamma-secretase activity, inhibitor, AlphaLISA | – | added: Notch1 substrate | 5.32 ± 0.7 |
| CN1CCN(c2ccc(Nc3ncc4cc(C#N)c(=O)n(C5CCCC5)c4n3)cc2)CC1 | Serine/threonine-protein kinase Chk1 (CHEK1, Homo sapiens, UniProt O14757) | – | – | – | 0.566 |
| CCCC[C@H](NC(=O)[C@H](C)c1c(C)[nH]c2ccc(O)cc12)c1ncc(-c2cc3ccccc3nc2OC)[nH]1 | Melanin-concentrating hormone receptor 1 (MCHR1, Homo sapiens, UniProt Q99705) | binding | – | – | 9.47 |
| COc1c([C@H]2[C@H](C(=O)Nc3ccnc(C(N)=O)c3)O[C@@](C)(C(F)(F)F)[C@H]2C)ccc(F)c1F | Sodium-dependent dopamine transporter (SLC6A3, Homo sapiens, UniProt Q01959) | functional activity, antagonist | – | – | 14 |
| Cc1ccc(CNC(=O)CSCc2nc(-c3cccc(C)c3)oc2C)cc1 | Probable G-protein coupled receptor 34 | antagonist, Tango | – | added: LysoPS 5 µM | > 10 |
| N#Cc1cc(-c2ncnc(Nc3ccc(N4CCN(C5COC5)CC4)cc3)n2)ccc1OC1CCOCC1 | Probable G-protein coupled receptor 34 | antagonist, Tango | – | added: LysoPS 5 µM | > 10 |
